Published values gathered from unrelated publications.
Every numbered part comes from another study and shows a few of its results, in no order.
Sequence of UniProt Q8NG66 (whole entry, looked up): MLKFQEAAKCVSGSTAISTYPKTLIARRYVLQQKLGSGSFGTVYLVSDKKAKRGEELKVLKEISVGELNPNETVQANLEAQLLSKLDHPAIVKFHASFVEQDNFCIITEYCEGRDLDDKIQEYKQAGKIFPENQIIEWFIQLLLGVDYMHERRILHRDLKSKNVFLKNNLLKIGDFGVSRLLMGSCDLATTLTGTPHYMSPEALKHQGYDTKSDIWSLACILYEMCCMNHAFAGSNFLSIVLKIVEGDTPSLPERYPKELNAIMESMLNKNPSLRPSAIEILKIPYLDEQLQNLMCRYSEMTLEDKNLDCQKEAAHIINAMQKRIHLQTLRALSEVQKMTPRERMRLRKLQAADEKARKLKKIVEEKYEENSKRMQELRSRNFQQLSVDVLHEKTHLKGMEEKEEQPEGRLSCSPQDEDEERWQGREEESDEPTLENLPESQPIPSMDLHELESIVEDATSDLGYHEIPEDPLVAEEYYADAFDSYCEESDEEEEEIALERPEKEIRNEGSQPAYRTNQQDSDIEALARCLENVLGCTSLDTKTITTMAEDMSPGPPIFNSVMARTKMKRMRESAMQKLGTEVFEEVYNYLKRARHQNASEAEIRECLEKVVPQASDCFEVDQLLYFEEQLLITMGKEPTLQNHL

Sample 1
Target: Sal-like protein 4, full length isoform B (SALL4, Homo sapiens, UniProt Q9UJQ4-2, residues 1-616)
Method: universal PBM
Molecule type: double-stranded DNA, one strand shown
Matrix: in vitro
Concentration: not given
Setting: 8-mer, flanks averaged, mean of replicates
Reading: higher = stronger binding
Residues (chain): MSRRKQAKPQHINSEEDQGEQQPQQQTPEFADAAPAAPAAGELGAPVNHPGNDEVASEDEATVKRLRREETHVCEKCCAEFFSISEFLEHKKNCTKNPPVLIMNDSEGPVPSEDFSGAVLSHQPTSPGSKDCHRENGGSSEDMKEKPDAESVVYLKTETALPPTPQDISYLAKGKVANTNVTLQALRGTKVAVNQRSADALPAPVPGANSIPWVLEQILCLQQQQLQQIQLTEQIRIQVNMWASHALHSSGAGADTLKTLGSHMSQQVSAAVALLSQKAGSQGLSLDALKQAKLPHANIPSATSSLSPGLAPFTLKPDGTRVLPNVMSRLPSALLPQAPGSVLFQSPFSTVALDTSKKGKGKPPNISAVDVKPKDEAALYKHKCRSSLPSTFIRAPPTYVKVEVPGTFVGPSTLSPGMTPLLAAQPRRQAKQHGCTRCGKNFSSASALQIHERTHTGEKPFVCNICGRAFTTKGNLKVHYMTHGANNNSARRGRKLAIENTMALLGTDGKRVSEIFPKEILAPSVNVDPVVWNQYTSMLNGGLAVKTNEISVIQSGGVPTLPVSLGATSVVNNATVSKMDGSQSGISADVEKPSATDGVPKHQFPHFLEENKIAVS
Strand	E-score
ACTGCGCA	0.0176
AGATTCAG	-0.019
GGTGGTGA	-0.177
AGCCATCA	-0.0787
GGAAGCCA	-0.171
TATACTCA	0.265
GTCGTGGA	-0.0454
AGCCACGG	-0.302

Sample 2
Target: Prothrombin, mature alpha-thrombin (F2, Homo sapiens, UniProt P00734)
Method: aptamer microarray, sandwich
Molecule type: DNA with 2'F-ANA
Matrix: in vitro
Concentration: 200 nM
Setting: whole 15-mer aptamer, many near background
Together with: Cy3 exosite-II aptamer, 400 nM
Reading: higher = stronger binding
Strand: GGTTGGTGTGGTTGG
Modification	mean fluorescence intensity [a.u.]
2'F-ANA at 1 3 5 7 8 9 10 11 12 13 15	51.9
2'F-ANA at 3 4 5 6 7 8 9 10 12 13 14	45.1
2'F-ANA at 2 3 4 5 6 7 8 9 10 11 13 14	82.4
2'F-ANA at 1 3 4 6 10 11 13	57.5
2'F-ANA at 2 3 4 5 9 10 11 12	66
2'F-ANA at 1 2 3 6 7 11 12 13 14	86.3
2'F-ANA at 2 7 8 10 11 13	114
2'F-ANA at 1 13 14	54.2

Sample 3
Target: Interferon regulatory factor 3, full length, phosphomimetic (IRF3, Homo sapiens, UniProt Q14653, residues 1-427, S386D/S396D/S398D/S402D/T404D/S405D)
Method: protein-binding microarray
Molecule type: double-stranded DNA, one strand shown
Matrix: in vitro
Concentration: 2540 nM top
Setting: 60-bp whole probe
Together with: salmon DNA 0.4 mg/ml
Reference: random background probes
Reading: higher = stronger binding
Constant ends, left off below: GCCTAGCAC … GTCTTGATTCGCTTGACGCTGCTG
Residues (chain): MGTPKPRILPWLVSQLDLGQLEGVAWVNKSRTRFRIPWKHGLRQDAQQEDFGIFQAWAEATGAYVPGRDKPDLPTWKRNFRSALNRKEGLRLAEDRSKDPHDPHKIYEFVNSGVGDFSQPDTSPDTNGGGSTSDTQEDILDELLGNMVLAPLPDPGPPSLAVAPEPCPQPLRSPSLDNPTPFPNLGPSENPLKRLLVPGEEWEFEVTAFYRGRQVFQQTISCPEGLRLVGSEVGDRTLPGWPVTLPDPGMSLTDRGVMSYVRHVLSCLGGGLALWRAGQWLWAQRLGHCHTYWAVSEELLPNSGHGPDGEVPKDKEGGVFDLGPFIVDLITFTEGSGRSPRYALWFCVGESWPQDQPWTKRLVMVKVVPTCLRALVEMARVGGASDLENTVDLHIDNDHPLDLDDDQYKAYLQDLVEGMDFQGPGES
Strand	fitted relative affinity [z-score]
TTAGATTTCGGGTTTCGATGAGTGCTA	2.69
TCATGTATGGGCATTTTTACTGTGCTA	-0.514
GACGGTATCGGGTACCGGGACGTGCTA	1.3
TTAGCTATCGGGTATCGGTTAGTGCTA	0.614
TGGTATTTTTTTGTAATCGAGTGCTAG	0.41
TCGTTATCCTATATCTGAACGTGCTAG	2.35
GAGGGTCTCCTTCTCCTGACGTGCTAG	2.74
GACGGTATCGACACCGGGGACGTGCTA	0.525

Mixed results
Structure (SMILES)	target	effect on	mode	concentration	reference	endpoint	result
Ic1cccc(CSc2nnc(-c3ccncc3)o2)c1	Serine/threonine-protein kinase Nek11 (NEK11, Homo sapiens, UniProt Q8NG66)	enzyme activity	inhibitor	0.5 µM	control	remaining activity	113%
